{"data": "Assay results of several laboratories", "note": "A part holds a random share of what one study measured. “And” joins repeats or separate records; there may be more than shown.", "chain of UniProt O14920 (whole entry, looked up)": "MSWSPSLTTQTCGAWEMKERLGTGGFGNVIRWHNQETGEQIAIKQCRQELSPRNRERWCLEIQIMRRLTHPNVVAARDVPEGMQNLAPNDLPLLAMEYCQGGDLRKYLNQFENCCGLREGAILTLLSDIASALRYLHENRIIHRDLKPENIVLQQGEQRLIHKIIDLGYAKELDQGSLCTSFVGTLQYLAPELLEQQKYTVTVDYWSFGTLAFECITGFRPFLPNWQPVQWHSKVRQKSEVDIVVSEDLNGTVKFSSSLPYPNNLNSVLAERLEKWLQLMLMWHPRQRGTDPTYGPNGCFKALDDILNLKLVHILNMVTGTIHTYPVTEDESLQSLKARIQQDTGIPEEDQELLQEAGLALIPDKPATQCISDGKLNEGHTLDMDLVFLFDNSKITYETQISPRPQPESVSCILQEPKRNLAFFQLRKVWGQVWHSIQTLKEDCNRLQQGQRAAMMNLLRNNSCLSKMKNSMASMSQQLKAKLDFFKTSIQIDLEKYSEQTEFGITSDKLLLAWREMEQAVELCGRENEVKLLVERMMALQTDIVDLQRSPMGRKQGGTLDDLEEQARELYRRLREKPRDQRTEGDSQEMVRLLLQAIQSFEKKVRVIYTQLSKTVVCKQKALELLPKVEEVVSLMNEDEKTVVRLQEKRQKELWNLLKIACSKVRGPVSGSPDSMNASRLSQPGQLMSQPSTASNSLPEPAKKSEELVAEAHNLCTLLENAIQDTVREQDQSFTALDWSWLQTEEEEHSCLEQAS", "chain of UniProt Q16513 (whole entry, looked up)": "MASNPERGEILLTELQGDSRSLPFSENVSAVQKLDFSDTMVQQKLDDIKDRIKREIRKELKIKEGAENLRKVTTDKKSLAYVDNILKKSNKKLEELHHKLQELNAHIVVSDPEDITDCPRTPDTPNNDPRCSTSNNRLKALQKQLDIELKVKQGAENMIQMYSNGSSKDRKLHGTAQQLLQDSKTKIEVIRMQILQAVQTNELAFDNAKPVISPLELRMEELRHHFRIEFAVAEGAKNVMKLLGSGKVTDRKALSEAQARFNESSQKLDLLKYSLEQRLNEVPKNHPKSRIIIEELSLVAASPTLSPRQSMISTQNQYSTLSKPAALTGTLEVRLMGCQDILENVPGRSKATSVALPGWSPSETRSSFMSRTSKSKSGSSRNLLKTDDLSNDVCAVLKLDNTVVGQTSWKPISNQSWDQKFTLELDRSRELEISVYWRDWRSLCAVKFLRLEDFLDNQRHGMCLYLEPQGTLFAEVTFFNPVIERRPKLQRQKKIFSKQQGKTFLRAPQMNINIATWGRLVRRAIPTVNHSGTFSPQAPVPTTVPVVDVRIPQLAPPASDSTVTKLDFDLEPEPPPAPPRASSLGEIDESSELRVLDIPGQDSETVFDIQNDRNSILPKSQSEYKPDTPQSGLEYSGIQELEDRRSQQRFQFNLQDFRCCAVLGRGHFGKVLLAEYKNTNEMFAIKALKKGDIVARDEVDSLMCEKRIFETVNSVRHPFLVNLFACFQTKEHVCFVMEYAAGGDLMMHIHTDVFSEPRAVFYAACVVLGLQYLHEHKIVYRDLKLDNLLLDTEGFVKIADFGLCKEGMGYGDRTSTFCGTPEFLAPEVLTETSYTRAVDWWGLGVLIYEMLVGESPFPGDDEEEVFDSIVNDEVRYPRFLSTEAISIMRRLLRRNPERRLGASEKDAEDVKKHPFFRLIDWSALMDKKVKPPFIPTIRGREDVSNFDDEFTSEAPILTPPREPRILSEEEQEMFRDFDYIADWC", "chain of UniProt P35626 (whole entry, looked up)": "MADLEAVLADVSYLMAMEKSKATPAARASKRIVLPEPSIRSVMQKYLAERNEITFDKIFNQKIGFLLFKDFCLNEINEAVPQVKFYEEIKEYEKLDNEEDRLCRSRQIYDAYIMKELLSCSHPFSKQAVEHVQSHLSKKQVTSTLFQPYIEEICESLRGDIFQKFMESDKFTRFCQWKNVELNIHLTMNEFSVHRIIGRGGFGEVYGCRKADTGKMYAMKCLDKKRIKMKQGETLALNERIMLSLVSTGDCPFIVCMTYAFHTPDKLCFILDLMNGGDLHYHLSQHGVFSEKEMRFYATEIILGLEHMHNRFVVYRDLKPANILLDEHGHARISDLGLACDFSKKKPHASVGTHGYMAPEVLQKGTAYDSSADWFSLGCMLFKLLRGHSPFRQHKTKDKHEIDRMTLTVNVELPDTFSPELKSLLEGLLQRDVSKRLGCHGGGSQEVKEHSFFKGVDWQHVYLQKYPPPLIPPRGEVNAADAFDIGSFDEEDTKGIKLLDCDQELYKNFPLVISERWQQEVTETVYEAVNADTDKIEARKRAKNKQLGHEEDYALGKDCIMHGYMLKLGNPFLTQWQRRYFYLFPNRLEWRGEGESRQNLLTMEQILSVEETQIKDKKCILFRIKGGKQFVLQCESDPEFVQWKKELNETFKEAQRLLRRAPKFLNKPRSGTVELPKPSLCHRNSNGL", "chain of UniProt Q96RR4 (whole entry, looked up)": "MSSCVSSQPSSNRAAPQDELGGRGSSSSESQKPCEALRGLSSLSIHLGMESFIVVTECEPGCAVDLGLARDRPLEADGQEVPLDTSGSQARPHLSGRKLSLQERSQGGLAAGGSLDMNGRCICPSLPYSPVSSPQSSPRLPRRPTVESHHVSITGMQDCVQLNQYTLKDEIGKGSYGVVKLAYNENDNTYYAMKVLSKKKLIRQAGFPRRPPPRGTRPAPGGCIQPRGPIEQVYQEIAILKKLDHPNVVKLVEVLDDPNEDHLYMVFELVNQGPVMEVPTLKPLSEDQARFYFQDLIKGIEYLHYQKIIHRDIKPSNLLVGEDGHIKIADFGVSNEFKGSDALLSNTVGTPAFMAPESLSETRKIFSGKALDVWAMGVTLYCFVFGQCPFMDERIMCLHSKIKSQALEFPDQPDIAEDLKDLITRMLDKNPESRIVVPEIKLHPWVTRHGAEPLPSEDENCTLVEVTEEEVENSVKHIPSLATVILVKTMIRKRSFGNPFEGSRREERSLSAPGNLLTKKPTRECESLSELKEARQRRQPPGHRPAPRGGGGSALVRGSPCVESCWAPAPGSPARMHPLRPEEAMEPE", "chain of UniProt Q9UIK4 (whole entry, looked up)": "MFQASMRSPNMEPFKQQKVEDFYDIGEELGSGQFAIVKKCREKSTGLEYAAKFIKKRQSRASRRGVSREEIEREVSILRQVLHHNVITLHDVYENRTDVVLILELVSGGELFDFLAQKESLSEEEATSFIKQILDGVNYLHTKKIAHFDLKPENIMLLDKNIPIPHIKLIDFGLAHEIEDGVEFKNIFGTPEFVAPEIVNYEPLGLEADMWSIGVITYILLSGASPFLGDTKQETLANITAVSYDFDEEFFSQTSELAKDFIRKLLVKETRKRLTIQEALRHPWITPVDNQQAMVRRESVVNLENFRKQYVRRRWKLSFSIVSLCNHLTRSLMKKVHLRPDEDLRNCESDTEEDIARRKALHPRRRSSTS", "chain of UniProt Q13557 (whole entry, looked up)": "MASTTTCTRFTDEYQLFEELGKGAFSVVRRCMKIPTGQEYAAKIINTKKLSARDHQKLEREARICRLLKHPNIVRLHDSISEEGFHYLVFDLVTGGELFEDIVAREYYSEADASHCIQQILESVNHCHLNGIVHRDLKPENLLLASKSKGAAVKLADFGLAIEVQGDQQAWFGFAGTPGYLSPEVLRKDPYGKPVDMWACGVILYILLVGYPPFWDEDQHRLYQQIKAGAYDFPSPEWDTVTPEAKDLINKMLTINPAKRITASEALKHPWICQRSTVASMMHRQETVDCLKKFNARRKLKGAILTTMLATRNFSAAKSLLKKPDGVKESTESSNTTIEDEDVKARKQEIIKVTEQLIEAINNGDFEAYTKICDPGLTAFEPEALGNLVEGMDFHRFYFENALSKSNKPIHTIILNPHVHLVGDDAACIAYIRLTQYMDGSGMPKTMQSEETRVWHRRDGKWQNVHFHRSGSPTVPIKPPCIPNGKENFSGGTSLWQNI", "chain of UniProt Q8TF76 (whole entry, looked up)": "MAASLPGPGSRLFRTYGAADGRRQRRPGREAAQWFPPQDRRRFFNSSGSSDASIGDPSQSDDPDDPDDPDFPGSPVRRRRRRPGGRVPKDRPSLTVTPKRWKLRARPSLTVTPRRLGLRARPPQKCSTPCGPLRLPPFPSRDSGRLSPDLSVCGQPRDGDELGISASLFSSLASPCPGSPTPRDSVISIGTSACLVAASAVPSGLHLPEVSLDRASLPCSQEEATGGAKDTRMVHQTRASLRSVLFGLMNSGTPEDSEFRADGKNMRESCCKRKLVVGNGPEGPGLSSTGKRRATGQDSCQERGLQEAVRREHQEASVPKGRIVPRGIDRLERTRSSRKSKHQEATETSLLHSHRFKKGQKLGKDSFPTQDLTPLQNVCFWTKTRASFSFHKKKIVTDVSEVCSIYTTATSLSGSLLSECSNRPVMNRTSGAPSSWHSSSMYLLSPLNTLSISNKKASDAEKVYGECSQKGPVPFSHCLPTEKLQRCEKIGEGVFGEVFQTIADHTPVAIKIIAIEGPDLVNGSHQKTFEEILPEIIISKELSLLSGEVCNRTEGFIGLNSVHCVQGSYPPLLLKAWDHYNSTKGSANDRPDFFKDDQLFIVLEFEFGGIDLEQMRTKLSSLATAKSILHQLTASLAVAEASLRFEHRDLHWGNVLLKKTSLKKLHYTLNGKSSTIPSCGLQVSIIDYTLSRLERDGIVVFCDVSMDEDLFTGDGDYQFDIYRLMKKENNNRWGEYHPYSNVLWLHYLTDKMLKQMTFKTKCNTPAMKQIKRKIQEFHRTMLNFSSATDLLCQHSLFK", "chain of UniProt P11802 (whole entry, looked up)": "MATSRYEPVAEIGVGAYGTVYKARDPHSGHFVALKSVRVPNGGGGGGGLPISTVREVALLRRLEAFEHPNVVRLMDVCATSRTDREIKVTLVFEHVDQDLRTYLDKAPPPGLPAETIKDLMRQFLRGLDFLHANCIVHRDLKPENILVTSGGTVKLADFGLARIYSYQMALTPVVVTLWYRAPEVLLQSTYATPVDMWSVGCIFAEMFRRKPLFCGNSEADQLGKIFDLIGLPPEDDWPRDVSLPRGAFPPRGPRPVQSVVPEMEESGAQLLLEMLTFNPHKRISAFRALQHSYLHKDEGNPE"}
{"data": "Set 1", "Structure (SMILES)": "c1ccc(Oc2ccc(Nc3c4c(nc5ccccc35)CCC4)cc2)cc1", "organism": "Leishmania donovani", "strain": "DD8", "medium": "promastigotes"}
{"concentration": "3.33 µM", "time": "48 h", "promastigote number": "15700 and 15600"}
{"concentration": "66.66 µM", "time": "48 h", "promastigote number": 1680}
{"concentration": "0.03 µM", "time": "72 h", "promastigote number": "9.76e+06 and 9.85e+06"}
{"concentration": "66.66 µM", "time": "72 h", "promastigote number": "1350 and 1590"}
{"concentration": "0.33 µM", "time": "48 h", "promastigote number": "4.33e+06"}
{"data": "Set 2", "SMILES": "CCN(CC)CCCCN1c2ccccc2Oc2ccc(Cl)cc21", "observed": "enzyme activity", "mode": "inhibitor", "concentration": "0.5 µM", "reference": "control"}
{"target": "cGMP-dependent protein kinase 1, isoform beta (PRKG1, Homo sapiens, UniProt Q13976)", "remaining activity [%]": 91.3}
{"target": "CHEK2 (Homo sapiens, UniProt O96017)", "remaining activity [%]": 105}
{"target": "CAMKK2 (Homo sapiens, UniProt Q96RR4)", "remaining activity [%]": 105}
{"target": "OXSR1 (Homo sapiens, UniProt O95747)", "remaining activity [%]": 89.8}
{"target": "STK39 (Homo sapiens, UniProt Q9UEW8)", "remaining activity [%]": 83.5}
{"target": "STK10 (Homo sapiens, UniProt O94804)", "remaining activity [%]": 97.1}
{"target": "MAPK9 (Homo sapiens, UniProt P45984)", "remaining activity [%]": 105}
{"target": "DAPK1 (Homo sapiens, UniProt P53355)", "remaining activity [%]": 76.6}
{"target": "Protein kinase C beta type, isoform beta-I (PRKCB, Homo sapiens, UniProt P05771)", "remaining activity [%]": 101}
{"target": "IKBKB (Homo sapiens, UniProt O14920)", "remaining activity [%]": 96.6}
{"target": "IKBKE (Homo sapiens, UniProt Q14164)", "remaining activity [%]": 102}
{"target": "GRK3 (Homo sapiens, UniProt P35626)", "remaining activity [%]": 87.5}
{"target": "Cyclin-dependent kinase 5, with p25 (CDK5, Homo sapiens, UniProt Q00535)", "remaining activity [%]": 91}
{"target": "Cyclin-dependent kinase 4, with cyclin D1 (CDK4, Homo sapiens, UniProt P11802)", "remaining activity [%]": 107}
{"target": "TGFBR1 (Homo sapiens, UniProt P36897)", "remaining activity [%]": 97.2}
{"target": "NEK2 (Homo sapiens, UniProt P51955)", "remaining activity [%]": 101}
{"target": "DAPK2 (Homo sapiens, UniProt Q9UIK4)", "remaining activity [%]": 99}
{"target": "TGFBR2 (Homo sapiens, UniProt P37173)", "remaining activity [%]": 96}
{"target": "CAMK2D (Homo sapiens, UniProt Q13557)", "remaining activity [%]": 105}
{"target": "PRKACA (Homo sapiens, UniProt P17612)", "remaining activity [%]": 98.4}
{"target": "Tyrosine-protein kinase Lyn, isoform B (LYN, Homo sapiens, UniProt P07948)", "remaining activity [%]": 115}
{"data": "Set 3", "cell line": "HuT78", "concentration": "2 µM", "time": "48 h", "reference": "untreated"}
{"SMILES": "Cc1nc(Nc2cnn(C3CCNCC3)c2)nc2c1N(C)C(=O)c1cc3ccccc3cc1N2C", "viability": "85.7%"}
{"SMILES": "COc1nccc(-c2c(-c3ccc(F)cc3)ncn2[C@H]2CC[C@H](O)CC2)n1", "viability": "91%"}
{"SMILES": "CCn1c(N)c(C(=O)NC)c(=O)c2ccc(C#C[C@@](C)(O)COC)nc21", "viability": "96.2%"}
{"SMILES": "CO[C@H]1C[C@@H]2CC[C@@H](C)[C@@](O)(O2)C(=O)C(=O)N2CCCC[C@H]2C(=O)O[C@H]([C@H](C)C[C@@H]2CC[C@@H](OP(C)(C)=O)[C@H](OC)C2)CC(=O)[C@H](C)/C=C(\\C)[C@@H](O)[C@@H](OC)C(=O)[C@H](C)C[C@H](C)/C=C/C=C/C=C/1C", "viability": "98%"}
{"SMILES": "COc1ccc(-c2cc3c(C)nc(N)nc3n([C@H]3CC[C@H](OCCO)CC3)c2=O)cn1", "viability": "48.6%"}
{"SMILES": "CN(C)Cc1cccc(N=C(c2ccccc2)c2c(O)[nH]c3cc(C(=O)N(C)C)ccc23)c1", "viability": "125%"}
{"SMILES": "N#C/C(=C\\c1ccc(O)c(O)c1)C(=O)NCc1ccccc1", "viability": "88.7%"}
{"SMILES": "CCCCCCCCCCCCCCCc1cccc(O)c1C(=O)O", "viability": "112%"}
{"SMILES": "CSc1cccc(Nc2ncc3cc(-c4c(Cl)cccc4Cl)c(=O)n(C)c3n2)c1", "viability": "103%"}
{"data": "Set 4", "SMILES": "Nc1c(C(=O)NCc2ccc(C(=O)NCCCC3CCCCC3)cc2)cnn1-c1ccccc1", "observed": "cell-free assay", "technique": "competition with immobilised ligand", "concentration": "0.1 µM"}
{"target": "PIP4K2C (Homo sapiens, UniProt Q8TBX8)", "remaining binding": "100%"}
{"target": "EIF2AK2 (Homo sapiens, UniProt P19525)", "remaining binding": "54%"}
{"target": "FGFR2 (Homo sapiens, UniProt P21802)", "remaining binding": "100%"}
{"target": "AXL (Homo sapiens, UniProt P30530)", "remaining binding": "87%"}
{"target": "MERTK (Homo sapiens, UniProt Q12866)", "remaining binding": "100%"}
{"target": "PKN2 (Homo sapiens, UniProt Q16513)", "remaining binding": "78%"}
{"target": "EGFR (Homo sapiens, UniProt P00533, L858R)", "remaining binding": "100%"}
{"target": "WNK4 (Homo sapiens, UniProt Q96J92)", "remaining binding": "80%"}
{"target": "Ribosomal protein S6 kinase alpha-4, C-terminal kinase domain (RPS6KA4, Homo sapiens, UniProt O75676)", "remaining binding": "98%"}
{"target": "KIT (Homo sapiens, UniProt P10721, D816V)", "remaining binding": "100%"}
{"target": "IKBKB (Homo sapiens, UniProt O14920)", "remaining binding": "100%"}
{"target": "CDK15 (Homo sapiens, UniProt Q96Q40)", "remaining binding": "95%"}
{"target": "EPHB6 (Homo sapiens, UniProt O15197)", "remaining binding": "100%"}
{"target": "HASPIN (Homo sapiens, UniProt Q8TF76)", "remaining binding": "100%"}
{"target": "MAPKAPK5 (Homo sapiens, UniProt Q8IW41)", "remaining binding": "93%"}
{"target": "PRKD3 (Homo sapiens, UniProt O94806)", "remaining binding": "92%"}
{"target": "Macrophage colony-stimulating factor 1 receptor, autoinhibited (CSF1R, Homo sapiens, UniProt P07333)", "remaining binding": "100%"}
{"target": "CDK3 (Homo sapiens, UniProt Q00526)", "remaining binding": "100%"}
{"target": "PKN1 (Homo sapiens, UniProt Q16512)", "remaining binding": "96%"}
{"target": "TEK (Homo sapiens, UniProt Q02763)", "remaining binding": "100%"}
{"target": "PIK3CA (Homo sapiens, UniProt P42336, E545K)", "remaining binding": "91%"}
{"target": "IRAK1 (Homo sapiens, UniProt P51617)", "remaining binding": "86%"}
{"target": "STK32B (Homo sapiens, UniProt Q9NY57)", "remaining binding": "100%"}
{"target": "MET (Homo sapiens, UniProt P08581, Y1235D)", "remaining binding": "94%"}
{"target": "MAP3K15 (Homo sapiens, UniProt Q6ZN16)", "remaining binding": "100%"}
